# Experimental data of several laboratories.
# Parts stem from different laboratories: compare values within a part only.

# Study 1
# Target: Phosphate system positive regulatory protein PHO4, full length, GST-tagged (PHO4, Saccharomyces cerevisiae, UniProt P07270, residues 1-312)
# Method: competition protein-binding microarray
# Form: double-stranded DNA, one strand shown
# Matrix: in vitro
# Concentration: 2 µM
# Setting: whole 60-bp probe, lowest competitor level
# Added: Cbf1 competitor, 0.05 µM
# Direction: higher = stronger binding
# All sequences stand within: … GTCTTGATTCGCTTGACGCTGCTG
# Target sequence (chain): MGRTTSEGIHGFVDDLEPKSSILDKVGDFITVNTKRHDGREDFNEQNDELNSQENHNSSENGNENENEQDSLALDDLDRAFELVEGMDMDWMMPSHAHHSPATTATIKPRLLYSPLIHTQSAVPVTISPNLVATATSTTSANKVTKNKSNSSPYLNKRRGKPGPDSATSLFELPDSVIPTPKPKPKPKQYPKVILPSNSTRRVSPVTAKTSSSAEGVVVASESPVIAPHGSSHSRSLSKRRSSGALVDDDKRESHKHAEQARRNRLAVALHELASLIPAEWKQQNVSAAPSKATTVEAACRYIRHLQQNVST
Sequence,fluorescence intensity [a.u.]
CTTCTGTAAATTTGGTACGTGGGTGGACGCGCCCCG,8440
CGTCTAGCAATACCGCACATGTTATTTGTGCTGTAG,11600
CGTCCTAGCGATTGATTTGTGGGTGCCATGAGGAAG,7110
TTGGACTTTAATGGGGGCGTGGGTATGTTTGGAGAC,9830
CTTAACGGCCTTGTTGGTGTGACGCTCACCTTGCTC,4040
TGCGCAACAACTTGCAATGTGGGTGTATGTCTAGAA,6370
TGCACCAATGTCCTCCACGGGATCGCCACTTTTTTT,8180
CATACCCAACCTTGTCACCAGACTTAAGATATTTGT,3690
CCATATTGGATTACCCACGTCGCCGCGACAGGCCTT,5590
AAATTACTAAGTTGGATCGTGGGTGACGCCGTATGA,8250
CGGGGTTAAGTTTGTCCCGTGGGTGGCTTGCAGCAG,8570
CTATTGCAAGAACTGGCCGTGATGGCAGAGTATCGG,4100
CGTCCTAGTGATTGTCACATGACTTCCATGAGGAAG,6660
TATGGGCTTATTAAGCTCGTGCTGTAAGATCTTGAA,12600
TACTTACCCTACCACCACATGCCGTATCCACCCTCA,10300
AAATTACTAAGTTTTCACGTGGTTTACCCCGTATGA,14100
TAGAGGCCCAACCGTCACGGCGTCTGGCTACGAACC,3350
AAAGGCCATCCATACTACGTGGGTACTCAATACCAT,8120
AACGGTTGATTCATTAATGTGATGACTGTTCACCCT,3360

# Study 2
# Target: Sal-like protein 4, full length isoform A (SALL4, Homo sapiens, UniProt Q9UJQ4, residues 1-1053)
# Sequence of UniProt Q9UJQ4 (whole entry, looked up): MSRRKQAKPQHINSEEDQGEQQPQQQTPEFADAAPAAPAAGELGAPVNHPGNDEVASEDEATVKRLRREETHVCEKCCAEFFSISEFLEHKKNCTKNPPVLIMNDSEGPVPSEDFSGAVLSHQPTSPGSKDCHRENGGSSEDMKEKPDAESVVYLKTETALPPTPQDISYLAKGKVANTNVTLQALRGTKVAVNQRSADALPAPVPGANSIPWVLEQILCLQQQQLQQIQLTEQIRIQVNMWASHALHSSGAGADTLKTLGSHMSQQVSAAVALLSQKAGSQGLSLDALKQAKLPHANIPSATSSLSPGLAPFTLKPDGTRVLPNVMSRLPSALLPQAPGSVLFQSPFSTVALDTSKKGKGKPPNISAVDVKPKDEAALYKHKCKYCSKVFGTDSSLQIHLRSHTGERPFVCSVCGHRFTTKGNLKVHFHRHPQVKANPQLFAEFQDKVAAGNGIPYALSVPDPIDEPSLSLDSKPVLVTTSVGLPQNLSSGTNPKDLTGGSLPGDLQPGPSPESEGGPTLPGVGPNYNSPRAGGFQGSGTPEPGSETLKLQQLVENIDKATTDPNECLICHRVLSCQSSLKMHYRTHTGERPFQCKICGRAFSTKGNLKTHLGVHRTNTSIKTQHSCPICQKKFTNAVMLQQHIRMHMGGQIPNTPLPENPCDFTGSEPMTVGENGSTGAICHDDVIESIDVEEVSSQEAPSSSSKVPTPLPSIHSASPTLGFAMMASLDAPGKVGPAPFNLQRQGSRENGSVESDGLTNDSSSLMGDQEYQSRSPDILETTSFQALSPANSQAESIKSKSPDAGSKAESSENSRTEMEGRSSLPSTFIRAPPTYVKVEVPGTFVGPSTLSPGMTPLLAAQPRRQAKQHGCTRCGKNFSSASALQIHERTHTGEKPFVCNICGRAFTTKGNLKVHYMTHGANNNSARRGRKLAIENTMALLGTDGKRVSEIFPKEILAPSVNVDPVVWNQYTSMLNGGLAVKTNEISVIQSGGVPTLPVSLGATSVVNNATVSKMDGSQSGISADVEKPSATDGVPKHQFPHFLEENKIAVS
# Method: universal PBM
# Form: double-stranded DNA, one strand shown
# Matrix: in vitro
# Concentration: 600 nM
# Setting: 8-mer, flanks averaged, mean of replicates
# Direction: higher = stronger binding
Sequence,E-score
GGCAAAAC,0.14
GACTGAGA,-0.0239
AGGAAAAT,0.166
ACCAGTAA,0.209
GAAATATC,0.239
CGTGGTCA,-0.21
TATGTGAA,0.286
GGACTACC,-0.107
ATCAAGTG,0.0864
CAACTCAA,0.138
ACGCTCCT,0.0123
ACTCACGG,-0.0997
AAAATTTG,0.346
TAATTAAA,0.376
CTCCCATA,0.0661
GCTAGGAA,-0.103
GCACGAAA,-0.0368
CGTTGCTA,-0.0294
AGCTCCCC,-0.23
AAAAACTG,0.136
CAATGTTA,0.28
CGATATTA,0.353
AAGGGGAT,-0.00933
AGTTTAAT,0.25
CTGGCCTC,-0.283

# Study 3
# Target: Histone acetyltransferase KAT6A, both winged helices, GST fusion (KAT6A, Homo sapiens, UniProt Q92794, residues 1-181)
# Method: protein binding microarray
# Form: double-stranded DNA, one strand shown
# Matrix: in vitro
# Concentration: not given
# Setting: 8-mer, flanks averaged, mean of 2 arrays, mostly near background
# Baseline: not given
# Direction: higher = stronger binding
# Target sequence (chain): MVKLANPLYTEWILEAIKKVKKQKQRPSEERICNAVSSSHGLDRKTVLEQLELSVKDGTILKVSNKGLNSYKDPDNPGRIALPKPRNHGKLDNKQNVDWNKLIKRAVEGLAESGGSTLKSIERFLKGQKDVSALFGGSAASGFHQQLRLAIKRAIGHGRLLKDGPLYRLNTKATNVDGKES
Sequence,E-score
ATAGTGAT,-0.0166
ATAATACC,-0.0516
GGGTGCCA,-0.0433
CGTGTAGA,0.136
ACTAGGCC,-0.0386
GGTTATTA,0.0463
AGTCGCAG,0.0458
ATACCGGC,0.307
CTCAGCAA,0.0462
ACCGCGTG,0.245
AGGGTTAT,-0.173
AGTGAAAA,-0.0424
CCAGAGTC,-0.0782
CGGCAGAC,0.207
AAGGTACC,-0.0698
ACAGCACA,-0.0345
ATACGTAA,0.0243
AATAGAAT,-0.196
GTGTTCAA,0.162
CGCCCAAG,0.034
CTAGACTA,-0.062
AATCATTC,-0.0592
ACCAGACA,-0.216
CTTTCAAA,0.0604
ATTCGGGC,0.0478

# Study 4
# Target: RNA binding protein fox-1 homolog 2, RRM domain, GST-SBP tag (RBFOX2, Homo sapiens, UniProt O43251-10, residues 100-194)
# Method: RNA Bind-n-Seq
# Form: RNA
# Matrix: in vitro
# Concentration: 365 nM
# Setting: natural RNA segment, single round, ends assumed
# Baseline: no-protein control
# Direction: higher = stronger binding
# All sequences stand within: GGGAGUUCUACAGUCCGACGAUC … UGGAAUUCUCGGGUGCCAA
# Residues (chain): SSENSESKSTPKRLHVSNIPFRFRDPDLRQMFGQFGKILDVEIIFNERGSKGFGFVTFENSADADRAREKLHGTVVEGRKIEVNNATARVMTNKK
Sequence,RBNS enrichment (R)
UGAGAGCAGAGAGUUUGGGAGGGGGUGAAGAGAAAACAACAUCACCAAAUAGUGAUAUAUAAGAGAAAAUCUGUGCUUCAGAGUUUGAUCAGGGCCAUCUCUCCCAACUC,0.532
UUUAAAUUGUAAGAUUUUUACUGUAUAUUGAUGCAUAGUGUGAUUCAAUAAAUUGCUUGUAAUUUAAAAACUAUUUAAUAUUCAAAAUAAAUAUAGUUAUAUAUUUAUAA,3.24
AAUAUUGUUUAAUCUUAAAACUGGGCAACUUUGGAAGAACUUUUAACAGAAGCCUCAAUGAUGAUCACUUUGAAUUGCUUGUGAUUUCAAAAAUAAAGCAGUGAAGCAAU,0.692
UAUGGCUGACCCACUCCAGGCCAAGCAGCUUAACAGCAGGCUUGCUGUUAAGUCCCAAGUCCGUCAUGGGGUCAGGUUACACCCAGAGGUGUUUUCACUGUGGGGUUCCA,0.225
UCUGGUUAUAAUUUUGGUCCAAAUUCUUUAUUCUUCCUUGAGCUAAGCAGAAUAAUGGAAUAUAAUAUGUCUUCAUAAUAUAACAACACUAAUACACUAAUAGUAAGAUU,0.353
CCAAGCAUAUAUAACUAGCUAGAAGUGGGCCAGGACAGGCCCGGCGCGGUGGCUCACGCCUGUAAUCCCAGCAGUUUGGGAGGUCGAGGUAGGUGGAUCACCUGAGGUCG,1.82
ACCCACCUUUGGGUGAUGGGUGCCUUAGGUCCCCAGCAGCUGUACAGAAGGGGCUCUUCUCUCCACAGAGCUGGGGUGCAGCCCCAACAUGUGAUUUUGAAUGAGUGUAA,0.536
CCGCCACCAAGAAUCCAAAACCUAUUUUUGACUUGGAGAGACUUGCUUUUGUUGGUUCCGCCCGUGGAGACGACGAUAGUGUUUCUGUAUAAUAAAGUGUCUGCCGGCUC,0.293

# For quick reference, copied from above (study 2):
Sequence,E-score
TATGTGAA,0.286
GGACTACC,-0.107
ATCAAGTG,0.0864
CAACTCAA,0.138
ACGCTCCT,0.0123
ACTCACGG,-0.0997
AAAATTTG,0.346
TAATTAAA,0.376
CTCCCATA,0.0661
GCTAGGAA,-0.103
